Results gathered from unrelated publications.
Compare with care: the assays were run in different laboratories. Several values in a cell are separate wells, animals, samples, runs or records. ± marks the error that the study gave.
U2AF2: U2AF2 148-342 (Homo sapiens, UniProt P26368)
UniProt P26368, sequence (whole entry, looked up): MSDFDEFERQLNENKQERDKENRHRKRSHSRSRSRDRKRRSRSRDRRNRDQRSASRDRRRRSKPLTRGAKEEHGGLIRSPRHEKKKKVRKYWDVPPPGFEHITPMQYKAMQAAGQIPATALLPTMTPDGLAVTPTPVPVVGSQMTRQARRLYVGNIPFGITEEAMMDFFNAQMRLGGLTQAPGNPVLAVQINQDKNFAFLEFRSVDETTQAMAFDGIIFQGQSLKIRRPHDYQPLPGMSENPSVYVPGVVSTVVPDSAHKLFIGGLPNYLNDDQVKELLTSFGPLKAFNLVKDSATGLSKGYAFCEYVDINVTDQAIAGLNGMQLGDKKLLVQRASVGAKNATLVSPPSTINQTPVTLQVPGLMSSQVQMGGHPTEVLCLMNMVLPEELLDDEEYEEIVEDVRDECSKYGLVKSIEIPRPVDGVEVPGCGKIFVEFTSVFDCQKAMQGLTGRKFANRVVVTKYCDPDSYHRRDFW
TGM2: TGM2 2-687 (Homo sapiens, UniProt P21980)
UniProt P21980, sequence (whole entry, looked up): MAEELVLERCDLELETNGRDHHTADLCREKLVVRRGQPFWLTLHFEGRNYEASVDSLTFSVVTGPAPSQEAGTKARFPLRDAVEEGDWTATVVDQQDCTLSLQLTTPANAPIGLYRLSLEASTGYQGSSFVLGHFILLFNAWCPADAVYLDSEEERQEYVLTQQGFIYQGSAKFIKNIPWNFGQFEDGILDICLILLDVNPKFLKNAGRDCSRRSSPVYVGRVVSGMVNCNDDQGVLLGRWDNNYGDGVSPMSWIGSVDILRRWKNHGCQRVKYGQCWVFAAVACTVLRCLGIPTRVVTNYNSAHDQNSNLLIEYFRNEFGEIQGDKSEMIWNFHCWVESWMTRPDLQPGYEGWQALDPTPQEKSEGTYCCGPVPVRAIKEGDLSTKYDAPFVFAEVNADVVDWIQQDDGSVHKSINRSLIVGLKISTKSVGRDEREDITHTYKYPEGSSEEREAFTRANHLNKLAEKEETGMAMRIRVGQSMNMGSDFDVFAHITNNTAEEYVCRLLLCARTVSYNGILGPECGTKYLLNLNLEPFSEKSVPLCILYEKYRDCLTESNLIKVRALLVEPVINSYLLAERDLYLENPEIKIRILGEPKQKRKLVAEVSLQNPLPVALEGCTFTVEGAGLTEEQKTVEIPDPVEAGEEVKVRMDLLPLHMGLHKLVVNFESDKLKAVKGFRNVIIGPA
B1: proteasome subunit alpha-3 (human); sequence looked up; chain SSIGTGYDLSASTFSPDGRVFQVEYAMKAVENSSTAIGIRCKDGVVFGVEKLVLSKLYEEGSNKRLFNVDRHVGMAVAGLLADARSLADIAREEASNFRSNFGYNIPLKHLADRVAMYVHAYTLYSAVRPFGCSFMLGSYSVNDGAQLYMIDPSGVSYGYWGCAIGKARQAAKTEIEKLQMKEMTCRDIVKEVAKIIYIVHDEVKDKAFELELSWVGELTNGRHEIVPKDIREEAEKYAKESLKEEDESDDDNM
B2: plakoglobin (human); sequence looked up; chain MEVMNLMEQPIKVTEWQQTYTYDSGIHSGANTCVPSVSSKGIMEEDEACGRQYTLKKTTTYTQGVPPSQGDLEYQMSTTARAKRVREAMCPGVSGEDSSLLLATQVEGQATNLQRLAEPSQLLKSAIVHLINYQDDAELATRALPELTKLLNDEDPVVVTKAAMIVNQLSKKEASRRALMGSPQLVAAVVRTMQNTSDLDTARCTTSILHNLSHHREGLLAIFKSGGIPALVRMLSSPVESVLFYAITTLHNLLLYQEGAKMAVRLADGLQKMVPLLNKNNPKFLAITTDCLQLLAYGNQESKLIILANGGPQALVQIMRNYSYEKLLWTTSRVLKVLSVCPSNKPAIVEAGGMQALGKHLTSNSPRLVQNCLWTLRNLSDVATKQEGLESVLKILVNQLSVDDVNVLTCATGTLSNLTCNNSKNKTLVTQNSGVEALIHAILRAGDKDDITEPAVCALRHLTSRHPEAEMAQNSVRLNYGIPAIVKLLNQPNQWPLVKATIGLIRNLALCPANHAPLQEAAVIPRLVQLLVKAHQDAQRHVAAGTQQPYTDGVRMEEIVEGCTGALHILARDPMNRMEIFRLNTIPLFVQLLYSSVENIQRVAAGVLCELAQDKEAADAIDAEGASAPLMELLHSRNEGTATYAAAVLFRISEDKNPDYRKRVSVELTNSLFKHDPAAWEAAQSMIPINEPYGDDMDATYRPMYSSDVPLDPLEMHMDMDGDYPIDTYSDGLRPPYPTADHMLA

MTVCNASQRQAHAQATAVSL — selectivity ratio (HCC1359; phage binding; peptide; reference: targeting over control phage): 0.72 ± 0.36
human RGPD4 — log2 fold change (CYB5R4 knockout human cells; PP4 interaction, 3xFLAG-PP4C IP-MS; concentration not given; reference: CYB5R4 KO over parental): -1.06
CUUCCUGUU (ssRNA) — Kd (U2AF2; sequencing of bound RNA; RNA; motif only): 8.15 µM
methyl-β-cyclodextrin — cholesterol decrease (HEK293 stably expressing hERG1a; Amplex Red; 1 mM, 2 h, 37 °C): ~52%
EPDPLGHEF — GFP-positive cells (Jurkat expressing engineered TCR; NFAT-eGFP reporter, fluorescence microscopy; peptide; concentration not given, HLA-A*01:01 on EL4 cells): 0.415%
colistin — MIC (Acinetobacter baumannii; broth microdilution; clinical isolate RKI-No_12/16): ≤ 0.5 µg/mL
PSMD3 (human) — log2 fold change (CYB5R4 knockout human cells; PP4 interaction, 3xFLAG-PP4C IP-MS; concentration not given; reference: CYB5R4 KO over parental): -0.43
TRAIL — viability (EA.hy926; CellTiter-Glo; concentration not given): 27.1% and 25.9%
human PABP1 — log2 fold change (CYB5R4 knockout human cells; PP4 interaction, 3xFLAG-PP4C IP-MS; concentration not given; reference: CYB5R4 KO over parental): 0.11
Peginesatide — phosphorylation level (UT7/EPO; tyrosine phosphorylation, LC-MS/MS phosphoproteomics, trypsin, refers to: SHC1 tyrosine 349; 10 nM, 15 min, together with: 10 U/mL EPO; reference: vehicle): 10.3 fold
QSDPIQSSY — GFP-positive cells (Jurkat expressing engineered TCR; NFAT-eGFP reporter, fluorescence microscopy; peptide; concentration not given, HLA-A*01:01 on EL4 cells): 0.604%
UUUACACUA (ssRNA) — Kd (U2AF2; sequencing of bound RNA; RNA; motif only): 11 µM
ELDPIPLGF — GFP-positive cells (Jurkat NFAT-eGFP expressing engineered TCR; NFAT reporter gene; peptide; concentration not given, HLA-A*01:01 presentation): 1.82%
GGGAGCAGGAGAGAGGUCAGAUGGUCGAGAUUCUGAGGGUUCUCCUGGUGGCUCCUAUGCGUGCUAGUGUGA (ssRNA; 2'-fluoro pyrimidines) — relative binding (TGM2; SPR; RNA; together with: MgCl2 5 mM; higher = more binding): 340 RU
YTDPIPLGM — GFP-positive cells (Jurkat expressing engineered TCR; NFAT-eGFP reporter, fluorescence microscopy; peptide; concentration not given, HLA-A*01:01 on EL4 cells): 0.466%
B1 (proteasome subunit alpha-3) — log2 fold change (CYB5R4 knockout human cells; PP6 interaction, 3xFLAG-PP6C IP-MS; concentration not given; reference: CYB5R4 KO over parental): 0.75
QLDPIGQEF — GFP-positive cells (Jurkat expressing engineered TCR; NFAT-eGFP reporter, fluorescence microscopy; peptide; concentration not given, HLA-A*01:01 on EL4 cells): 0.466%
GGGAGCAGGAGAGAGGUCAGAUGUUUAGUAUAUACGAGAGAUGUGAACAAUGACCUAUGCGUGCUAGUGUGA (ssRNA; 2'-fluoro pyrimidines) — relative binding (TGM2; SPR; RNA; together with: MgCl2 5 mM; higher = more binding): -4.5 RU
lawsone — selectivity index (HuCC-A1; MTT; reference: MRC5 IC50 over HuCC-A1 IC50): 3.12
B2 (plakoglobin) — log2 fold change (CYB5R4 knockout human cells; PP6 interaction, 3xFLAG-PP6C IP-MS; concentration not given; reference: CYB5R4 KO over parental): 0.61
epoetin alfa — mRNA level (UT7/EPO; microarray, refers to: PLSCR1 mRNA (probe set 241916_at); 5 U/mL, 90 min; reference: vehicle): 3.4 fold
human RGPD5 — log2 fold change (CYB5R4 knockout human cells; PP4 interaction, 3xFLAG-PP4C IP-MS; concentration not given; reference: CYB5R4 KO over parental): -0.94
PFVYLIRFHRFHRFHGGGSSSQLSRP — transfection efficiency (HEK293T; plasmid delivery, refers to: RFP; peptide; concentration not given, 48 h): ~60%

For quick reference, copied from above:
Peginesatide — phosphorylation level (UT7/EPO; tyrosine phosphorylation, LC-MS/MS phosphoproteomics, trypsin, refers to: SHC1 tyrosine 349; 10 nM, 15 min, together with: 10 U/mL EPO; reference: vehicle): 10.3 fold
CUUCCUGUU (ssRNA) — Kd (U2AF2; sequencing of bound RNA; RNA; motif only): 8.15 µM
